Measured values of several laboratories.
Lines come from different studies, so protocols differ. Values joined by “and” are separate records of one study, mostly repeats; a detail may differ. Numbers after ± are the reported error.
BACE1: Beta-secretase 1 (BACE1, Homo sapiens, UniProt P56817)
Kir3.1/Kir3.2: Kir3.1/Kir3.2 (Homo sapiens, UniProt P48051+P48549)
Chain of UniProt P48051 (whole entry, looked up): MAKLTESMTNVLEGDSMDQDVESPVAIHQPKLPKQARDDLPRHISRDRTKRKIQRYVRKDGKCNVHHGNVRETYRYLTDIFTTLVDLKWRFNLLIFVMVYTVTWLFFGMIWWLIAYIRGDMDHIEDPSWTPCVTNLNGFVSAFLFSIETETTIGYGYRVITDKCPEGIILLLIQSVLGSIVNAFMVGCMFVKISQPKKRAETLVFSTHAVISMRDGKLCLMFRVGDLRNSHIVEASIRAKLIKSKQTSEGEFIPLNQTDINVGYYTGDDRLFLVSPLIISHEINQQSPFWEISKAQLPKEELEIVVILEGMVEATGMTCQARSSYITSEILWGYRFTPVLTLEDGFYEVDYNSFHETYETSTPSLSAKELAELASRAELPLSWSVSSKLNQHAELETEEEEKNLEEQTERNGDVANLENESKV
Chain of UniProt P48549 (whole entry, looked up): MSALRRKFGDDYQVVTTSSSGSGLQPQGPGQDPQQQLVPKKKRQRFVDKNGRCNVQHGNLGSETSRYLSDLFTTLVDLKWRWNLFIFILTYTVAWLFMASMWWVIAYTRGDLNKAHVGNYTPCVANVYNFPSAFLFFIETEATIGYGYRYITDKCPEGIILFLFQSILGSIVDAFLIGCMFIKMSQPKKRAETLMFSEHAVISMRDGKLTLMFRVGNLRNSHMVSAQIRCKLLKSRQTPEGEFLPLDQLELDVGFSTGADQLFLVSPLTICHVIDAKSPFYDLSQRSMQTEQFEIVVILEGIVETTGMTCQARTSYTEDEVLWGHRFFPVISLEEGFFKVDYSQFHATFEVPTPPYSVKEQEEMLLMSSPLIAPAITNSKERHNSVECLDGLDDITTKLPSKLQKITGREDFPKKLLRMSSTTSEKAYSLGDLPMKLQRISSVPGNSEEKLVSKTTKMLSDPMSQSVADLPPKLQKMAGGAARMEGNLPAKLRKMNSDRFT
Ephx2: Bifunctional epoxide hydrolase 2 (Ephx2, Mus musculus, UniProt P34914)
Chain of UniProt P34914 (whole entry, looked up): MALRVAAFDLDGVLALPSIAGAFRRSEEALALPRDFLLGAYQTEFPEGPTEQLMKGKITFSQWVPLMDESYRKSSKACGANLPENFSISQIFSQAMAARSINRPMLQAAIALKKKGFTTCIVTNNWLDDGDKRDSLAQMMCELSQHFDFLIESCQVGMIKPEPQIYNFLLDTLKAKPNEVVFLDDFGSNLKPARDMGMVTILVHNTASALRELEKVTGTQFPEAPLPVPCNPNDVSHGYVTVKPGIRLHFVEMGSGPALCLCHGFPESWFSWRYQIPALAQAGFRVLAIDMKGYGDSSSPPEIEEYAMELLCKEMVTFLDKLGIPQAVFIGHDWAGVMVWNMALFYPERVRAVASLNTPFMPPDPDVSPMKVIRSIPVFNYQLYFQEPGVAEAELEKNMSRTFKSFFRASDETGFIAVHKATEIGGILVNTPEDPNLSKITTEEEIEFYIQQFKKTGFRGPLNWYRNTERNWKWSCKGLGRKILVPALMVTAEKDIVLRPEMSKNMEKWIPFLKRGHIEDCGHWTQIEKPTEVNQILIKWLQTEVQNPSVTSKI
ALPI: Intestinal-type alkaline phosphatase (ALPI, Bos taurus, UniProt P19111)
Chain of UniProt P19111 (whole entry, looked up): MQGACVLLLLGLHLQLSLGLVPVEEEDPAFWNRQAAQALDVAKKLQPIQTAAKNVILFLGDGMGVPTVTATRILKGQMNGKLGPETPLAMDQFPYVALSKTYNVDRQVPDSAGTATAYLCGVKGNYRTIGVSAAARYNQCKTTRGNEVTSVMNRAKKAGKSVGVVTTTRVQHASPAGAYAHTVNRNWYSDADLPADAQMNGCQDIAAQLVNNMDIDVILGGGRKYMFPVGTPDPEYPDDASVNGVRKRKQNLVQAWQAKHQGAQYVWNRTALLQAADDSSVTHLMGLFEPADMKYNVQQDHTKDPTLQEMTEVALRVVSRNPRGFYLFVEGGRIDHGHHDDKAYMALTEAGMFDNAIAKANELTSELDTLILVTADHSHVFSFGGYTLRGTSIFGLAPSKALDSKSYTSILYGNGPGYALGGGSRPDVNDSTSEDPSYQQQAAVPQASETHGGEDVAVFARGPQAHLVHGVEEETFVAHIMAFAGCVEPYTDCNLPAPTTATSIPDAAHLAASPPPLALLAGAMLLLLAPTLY
MDH2: Malate dehydrogenase, mitochondrial (MDH2, Sus scrofa, UniProt P00346)
Chain of UniProt P00346 (whole entry, looked up): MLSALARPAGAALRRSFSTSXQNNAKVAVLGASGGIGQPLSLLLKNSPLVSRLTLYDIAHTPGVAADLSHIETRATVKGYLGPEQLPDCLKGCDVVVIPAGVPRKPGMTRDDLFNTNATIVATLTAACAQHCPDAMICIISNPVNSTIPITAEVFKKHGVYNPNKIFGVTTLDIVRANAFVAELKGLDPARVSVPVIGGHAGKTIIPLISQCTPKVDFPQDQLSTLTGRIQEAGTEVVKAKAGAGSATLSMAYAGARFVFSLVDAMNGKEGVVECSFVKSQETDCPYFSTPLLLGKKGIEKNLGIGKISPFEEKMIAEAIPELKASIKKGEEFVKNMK
EGLN1: Egl nine homolog 1 (EGLN1, Homo sapiens, UniProt Q9GZT9)
Chain of UniProt Q9GZT9 (whole entry, looked up): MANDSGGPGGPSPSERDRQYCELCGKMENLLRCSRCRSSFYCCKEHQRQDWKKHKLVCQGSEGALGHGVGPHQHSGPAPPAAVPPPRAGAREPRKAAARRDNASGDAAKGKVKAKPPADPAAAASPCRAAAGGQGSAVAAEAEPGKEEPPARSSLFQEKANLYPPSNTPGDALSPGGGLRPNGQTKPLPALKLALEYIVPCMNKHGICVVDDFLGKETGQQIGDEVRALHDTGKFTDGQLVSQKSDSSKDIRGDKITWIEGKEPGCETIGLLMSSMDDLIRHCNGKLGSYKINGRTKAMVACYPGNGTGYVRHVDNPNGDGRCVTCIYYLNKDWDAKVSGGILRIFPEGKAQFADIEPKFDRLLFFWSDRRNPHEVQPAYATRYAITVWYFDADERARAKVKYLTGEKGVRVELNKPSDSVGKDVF
Chain of UniProt Q8TDS5 (whole entry, looked up): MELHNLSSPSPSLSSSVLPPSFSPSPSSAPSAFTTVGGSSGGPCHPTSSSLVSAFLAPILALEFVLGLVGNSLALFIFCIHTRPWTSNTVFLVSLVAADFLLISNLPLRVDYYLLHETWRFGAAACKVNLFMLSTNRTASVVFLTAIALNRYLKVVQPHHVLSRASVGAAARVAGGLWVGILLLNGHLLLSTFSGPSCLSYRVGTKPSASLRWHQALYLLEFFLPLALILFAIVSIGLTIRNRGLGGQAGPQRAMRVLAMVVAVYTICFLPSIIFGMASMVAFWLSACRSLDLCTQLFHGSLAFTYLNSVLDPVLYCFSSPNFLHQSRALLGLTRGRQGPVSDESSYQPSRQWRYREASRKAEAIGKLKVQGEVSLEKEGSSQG
Chain of UniProt P08246 (whole entry, looked up): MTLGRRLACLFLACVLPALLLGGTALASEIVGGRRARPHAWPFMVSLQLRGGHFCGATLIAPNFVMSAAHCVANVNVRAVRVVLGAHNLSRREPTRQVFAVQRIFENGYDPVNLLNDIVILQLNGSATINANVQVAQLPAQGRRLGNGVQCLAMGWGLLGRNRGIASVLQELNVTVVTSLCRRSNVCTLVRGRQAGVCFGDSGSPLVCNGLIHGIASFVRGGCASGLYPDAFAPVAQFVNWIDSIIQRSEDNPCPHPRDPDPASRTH

| Molecule | target | test | system | setting | IC50 |
| --- | --- | --- | --- | --- | --- |
| Cc1nc2ccccc2n1Cc1ccc(C(=O)NO)cc1 | Histone deacetylase 5 (HDAC5, Homo sapiens, UniProt Q9UQL6) | – | – | concentration not given | 0.406 µM |
| O=C(O)c1ccc(-n2c(/C=C/c3ccccc3[N+](=O)[O-])nc3ccccc3c2=O)cc1 | Glutamate receptor ionotropic, kainate 2 (Grik2, Rattus norvegicus, UniProt P42260) | ion current, inhibitor, two-electrode voltage clamp | Xenopus oocytes | concanavalin A pretreatment, together with: 100 µM glutamate | > 300 µM |
| N#Cc1cccc(OC(=O)N2CC(OC(c3ccc(F)cc3)c3ccc(F)cc3)C2)c1 | Monoacylglycerol lipase ABHD6 (ABHD6, Homo sapiens, UniProt Q9BV23) | enzyme activity, inhibitor, fluorescence | – | – | 0.581 µM |
| N=C(N)c1ccc(OCCCCCOc2ccc(C(=N)N)cc2)cc1 | Grin1/Grin2a/Grin2b, channel binding site (Rattus norvegicus, UniProt P35439+Q00959+Q00960) | – | – | pH 7 | 2.68 ± 0.65 µM |
| CC(C)C[C@H](NC(=O)[C@H](Cc1ccccc1)NC(=O)c1cnccn1)B(O)O | Proteasome subunits (Trypanosoma cruzi, UniProt Q4CU77+Q4D8U7) | caspase-like activity, inhibitor | – | wild-type proteasome | 0.37 ± 0.012 µM |
| CCCC[C@H](NC(=O)CNC(=O)[C@H](CCCCN)NC(=O)[C@@H](NC(=O)[C@H](CCC(=O)O)NC(=O)CNC(=O)[C@H](CCCNC(=N)N)NC(=O)[C@@H]1CCCN1C(=O)[C@H](CCCCN)NC(=O)[C@@H](N)CCCCN)[C@@H](C)O)C(=O)N[C@H](C(=O)N[C@@H](Cc1ccc(O)cc1)C(N)=O)[C@@H](C)CC | human 20S proteasome (latent) | peptidylglutamyl-peptide hydrolase activity, inhibitor | – | pH 8.0, 37 °C, together with: Z-LLE-βNA | 1.42 µM |
| NCCCCCO[C@H]1O[C@H](COS(=O)(=O)O)[C@@H](O[C@@H]2O[C@H](C(=O)O)[C@@H](O[C@H]3O[C@H](COS(=O)(=O)O)[C@@H](O[C@@H]4O[C@@H](C(=O)O)[C@@H](O)[C@H](O)[C@H]4O)[C@H](O)[C@H]3NS(=O)(=O)O)[C@H](O)[C@H]2O)[C@H](O)[C@H]1NS(=O)(=O)O | BACE1 | enzyme activity, inhibitor, FRET | – | pH 4.5 | 236 µM |
| N=c1n(Cc2ccccc2)c2ccccc2n1CC(O)COc1ccc(OCc2ccccc2)cc1 (stereo not shown) | Kir3.1/Kir3.2 | ion flux | – | – | 3.17 µM |
| C[C@]12C[C@@H]3C[C@](C)(C1)C[C@@](Nc1c(Nc4ccc(CN5CCC[C@H](C(=O)NCCCCCC(=O)NO)C5)cc4F)c(=O)c1=O)(C3)C2 | Ephx2 | enzyme activity, inhibitor, fluorescence | – | – | 1.23 µM |
| C=C(C)CCOP(=O)(O)OP(=O)(O)OP(=O)(O)OC[C@H]1O[C@@H](n2cnc3c(N)ncnc32)[C@H](O)[C@@H]1O | Serine/threonine-protein kinase 26 (STK26, Homo sapiens, UniProt Q9P289) | enzyme activity, inhibitor, HotSpot kinase | – | together with: ATP 1 µM | 1.5 µM |
| C[C@]12C[C@@H]3C[C@](C)(C1)C[C@@](NC(=O)Nc1ccc(C(=O)N4CCC[C@H](C(=O)NCCCC(=O)NO)C4)cc1F)(C3)C2 | Ephx2 | enzyme activity, inhibitor, fluorescence | – | – | 0.0015 µM |
| O=C1NC2=C(C(=O)N(Cc3ccc(F)cc3)C2)C(c2ccc(O)cc2)N1 (stereo not shown) | ALPI | enzyme activity, inhibitor, absorbance | – | pH 9.5 | 4.77 µM |
| sodium copper chlorophyllin | MDH2 | enzyme activity, inhibitor | – | counter-screen | > 63 µM |
| CCCCCCCCCCCCCCCC(=O)OCc1cc(=O)c(OC(=O)CCCCCCCCCCCCCCC)co1 | mushroom tyrosinase | inhibitor | – | together with: L-DOPA | > 2000 µM |
| CC(C)(Sc1ccc(CCN(CCCCC2CCCCC2)C(=O)NC2CCCCC2)cc1)C(=O)O | Ubiquitin carboxyl-terminal hydrolase 8 (USP8, Homo sapiens, UniProt P40818) | – | – | – | > 114 µM |
| COc1ccccc1OCC(O)Cn1c(=N)n(Cc2ccccc2)c2ccccc21 (stereo not shown) | Kir3.1/Kir3.2 | ion flux | – | – | 5.13 µM |
| COc1cc(/C=C/C(C)=N/O)ccc1OCC(=O)Nc1ccccc1C | Peroxisome proliferator-activated receptor gamma (PPARG, Homo sapiens, UniProt P37231) | ligand displacement, TR-FRET | – | – | 15.6 µM |
| CCCCC=O | Liver carboxylesterase (Sus scrofa, UniProt Q29550) | enzyme activity, inhibitor | – | with preincubation | 1370 µM |
| O=C(Nc1cc(Cl)c(F)c(Cl)c1)c1cc(S(=O)(=O)N2CCOCC2)c(Cl)cc1Cl | Lysophosphatidic acid receptor 5 (LPAR5, Homo sapiens, UniProt Q9H1C0) | Ca2+ mobilization, antagonist | B103 | together with: LPA at EC50 | > 100 µM |
| C[C@]12CC3CC(Nc4c(Nc5ccc(C(=O)N6CCC[C@H](C(=O)NCCCCCC(=O)NO)C6)cc5)c(=O)c4=O)(C1)C[C@@](C)(C3)C2 | Ephx2 | enzyme activity, inhibitor, fluorescence | – | – | 16.1 µM |

| Molecule | target | test | system | setting | IC50 |
| --- | --- | --- | --- | --- | --- |
| CCCCCCCCN1CC2=C(C1=O)C(c1ccc(O)cc1)NC(=O)N2 (stereo not shown) | ALPI | enzyme activity, inhibitor, absorbance | – | pH 9.5 | 8.23 µM |
| C[C@@H](O)[C@H](F)[C@@H](O)[C@H](O)C(=O)CO | 3-dehydroquinate synthase, chloroplastic (DHQS, Arabidopsis thaliana, UniProt Q8VYV7) | enzyme activity, inhibitor, malachite green phosphate release | – | 29 °C | 250 µM |
| [Cl-].[Cl-].[Zn+2] | Voltage-gated hydrogen channel 1 (HVCN1, Homo sapiens, UniProt Q96D96, H193A) | proton current, inhibitor, whole-cell voltage clamp | human cells | pH 6.5, test pulse 100 mV | 87.8 µM |
| micropeptin 996 | Neutrophil elastase (ELANE, Homo sapiens, UniProt P08246) | inhibitor | – | – | 0.84 ± 0.12 µM |
| CCCCCCc1cc2cc(Cl)ccc2n1C(=O)CCCC(=O)O | Oxoeicosanoid receptor 1 (OXER1, Homo sapiens, UniProt Q8TDS5) | calcium signal, antagonist | – | – | 1.2 µM and 1.17 µM |
| [Cl][Eu]([Cl])[Cl] | Collagenase 3 (MMP13, Homo sapiens, UniProt P45452) | enzyme activity, inhibitor | – | pH 7.5, with preincubation | 7.88 µM |
| O=C(O)/C=C/C(=O)NNC(=O)c1cccnc1 | EGLN1 | inhibitor, AlphaScreen | – | bimodal curve, rough estimate, together with: 2 µM 2-oxoglutarate | 0.082 µM |
| CC1CC(OC(=O)c2ccccc2O)CC(C)(C)C1 (stereo not shown) | Voltage-gated inwardly rectifying potassium channel KCNH2 (KCNH2, Homo sapiens, UniProt Q12809) | inhibitor | – | 10 min | 23 ± 23 µM |
| O=C1C2=C(Nc3ccccc3N2)OC1c1c[nH]c2ccc(COc3ccccc3)cc12 (stereo not shown) | BACE1 | inhibitor, FRET | – | pH 4.5 | 1.8 ± 1.1 µM |
| O=C(NNC(=O)c1ccc(CNS(=O)(=O)c2ccc(F)c(Cl)c2)cc1)c1ccccc1 | Glutamate NMDA receptor; Grin1/Grin2a (Grin1/Grin2a, Rattus norvegicus, UniProt P35439+Q00959, L777A) | ion current, two-electrode voltage clamp | – | oocytes | 0.072 µM |
| CCN(c1ccc(Cl)cc1)S(=O)(=O)C1CC2OC1C(c1ccc(O)cc1)=C2c1ccc(O)cc1 (stereo not shown) | Estrogen receptor beta (ESR2, Homo sapiens, UniProt Q92731) | reporter gene, antagonist, luciferase | – | – | 0.16 µM |
| O=C(O)CCCC(=O)NNC(=O)c1ccc2ccccc2n1 | EGLN1 | inhibitor, AlphaScreen | – | bimodal curve, rough estimate, together with: 2 µM 2-oxoglutarate | > 300 µM |
| CCCCC/C=C\C/C=C\C/C=C\C/C=C\CCCC(=O)O | Liver carboxylesterase 1 (CES1, Homo sapiens, UniProt P23141) | enzyme activity, inhibitor, fluorescence | – | – | ~10 µM |
| Cc1ccc(O)c(O)c1 | EGLN1 | ODDD peptide hydroxylation, inhibitor, MALDI-TOF MS | – | pH 7.00, 37.0 °C, together with: 2-oxoglutarate 10 µM | 4 µM |
| CSc1nnc2[nH]nc(C)c2n1 | deoD (Escherichia coli, UniProt P0ABP8) | phosphorolysis, inhibitor | – | pH 7.0, 25 °C, together with: 7-methylguanosine 32 µM, phosphate 50 mM | ~40 µM |
| CDK1/2 inhibitor III | Serine/threonine-protein kinase 24 (STK24, Homo sapiens, UniProt Q9Y6E0) | kinase activity, inhibitor | – | together with: myelin basic protein 10 µM, ATP 10 µM | 0.014 µM |
| CCC(=O)c1ccc(Oc2ccc(Cl)cc2Cl)c(O)c1 | Enoyl-acyl carrier reductase (ENR, Toxoplasma gondii, UniProt Q6UCJ9) | enzyme activity, inhibitor, absorbance | – | – | 0.38 µM |
| CCN1/C(=C/c2ccc3ccccc3[n+]2CC)C=Cc2ccccc21 | Equilibrative nucleoside transporter 4 (Slc29a4, Mus musculus, UniProt Q8R139) | – | – | pH 7.4 | 0.591 ± 0.054 µM |
| O=C(C=Cc1ccc(O)c(O)c1)NCCCNCCCCNC(=O)CCc1ccc(O)c(O)c1 | Muscarinic acetylcholine receptor M1 (CHRM1, Homo sapiens, UniProt P11229) | calcium signal, antagonist, fluorescence | – | – | 0.863 µM |
| hemin | MDH2 | enzyme activity, inhibitor | – | pH 7, no detergent | 1.9 µM |

Repeated from above:
| Molecule | target | test | system | setting | IC50 |
| --- | --- | --- | --- | --- | --- |
| CSc1nnc2[nH]nc(C)c2n1 | deoD (Escherichia coli, UniProt P0ABP8) | phosphorolysis, inhibitor | – | pH 7.0, 25 °C, together with: 7-methylguanosine 32 µM, phosphate 50 mM | ~40 µM |
| CDK1/2 inhibitor III | Serine/threonine-protein kinase 24 (STK24, Homo sapiens, UniProt Q9Y6E0) | kinase activity, inhibitor | – | together with: myelin basic protein 10 µM, ATP 10 µM | 0.014 µM |
| CCC(=O)c1ccc(Oc2ccc(Cl)cc2Cl)c(O)c1 | Enoyl-acyl carrier reductase (ENR, Toxoplasma gondii, UniProt Q6UCJ9) | enzyme activity, inhibitor, absorbance | – | – | 0.38 µM |
| CCN1/C(=C/c2ccc3ccccc3[n+]2CC)C=Cc2ccccc21 | Equilibrative nucleoside transporter 4 (Slc29a4, Mus musculus, UniProt Q8R139) | – | – | pH 7.4 | 0.591 ± 0.054 µM |
| O=C(C=Cc1ccc(O)c(O)c1)NCCCNCCCCNC(=O)CCc1ccc(O)c(O)c1 | Muscarinic acetylcholine receptor M1 (CHRM1, Homo sapiens, UniProt P11229) | calcium signal, antagonist, fluorescence | – | – | 0.863 µM |
| hemin | MDH2 | enzyme activity, inhibitor | – | pH 7, no detergent | 1.9 µM |
